{"data": "Published values pooled from the literature", "note": "Each numbered part is a random draw from the data of one study; scales do not carry over between parts. Positions count from the first letter of the parent shown."}
{"data": "Set 1", "target": "ABI1, truncated, D143A, DHFR fusion (Arabidopsis thaliana)", "technique": "DHFR PCA, deep sequencing", "medium": "yeast", "notes": "methotrexate growth selection, single substitutions", "added": "(+)-ABA 58 µM", "relative to": "wild-type fitted maximum", "direction": "higher = stronger binding", "parent": "PYL1, truncated, DHFR fusion (Arabidopsis thaliana); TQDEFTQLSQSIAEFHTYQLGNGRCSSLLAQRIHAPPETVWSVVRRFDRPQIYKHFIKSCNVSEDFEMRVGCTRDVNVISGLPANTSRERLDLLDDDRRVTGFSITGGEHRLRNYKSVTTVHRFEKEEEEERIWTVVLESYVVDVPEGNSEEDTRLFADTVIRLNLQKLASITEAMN; partner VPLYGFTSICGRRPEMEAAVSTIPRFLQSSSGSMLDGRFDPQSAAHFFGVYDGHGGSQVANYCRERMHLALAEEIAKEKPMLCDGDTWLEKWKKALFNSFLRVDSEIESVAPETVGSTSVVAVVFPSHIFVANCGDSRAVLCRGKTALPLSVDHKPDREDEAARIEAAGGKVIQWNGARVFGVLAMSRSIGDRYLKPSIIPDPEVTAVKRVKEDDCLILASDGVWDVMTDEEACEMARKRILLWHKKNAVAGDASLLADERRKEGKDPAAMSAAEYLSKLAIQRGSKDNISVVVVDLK"}
{"Change": "D3W", "relative binding score [%]": 80.4}
{"Change": "I105Y", "relative binding score [%]": -6.16}
{"Change": "T39F", "relative binding score [%]": 74.9}
{"Change": "A35G", "relative binding score [%]": 48.6}
{"Change": "P37C", "relative binding score [%]": 67.9}
{"Change": "R24T", "relative binding score [%]": 88.2}
{"Change": "P83M", "relative binding score [%]": 9.56}
{"Change": "L91Y", "relative binding score [%]": -1.51}
{"Change": "V62Y", "relative binding score [%]": 54}
{"Change": "S140W", "relative binding score [%]": 5.55}
{"Change": "F103Q", "relative binding score [%]": -6.8}
{"Change": "H55K", "relative binding score [%]": 92.3}
{"Change": "G21I", "relative binding score [%]": 87.4}
{"Change": "A175L", "relative binding score [%]": 74.2}
{"Change": "Y115P", "relative binding score [%]": -3.96}
{"Change": "A35L", "relative binding score [%]": -7.46}
{"data": "Set 2", "target": "RNA binding protein fox-1 homolog 2, RRM domain, GST-SBP tag (RBFOX2, Homo sapiens, UniProt O43251-10, residues 100-194)", "technique": "RNA Bind-n-Seq", "form": "RNA", "medium": "in vitro", "tested at": "365 nM", "notes": "natural RNA segment, single round, ends assumed", "relative to": "no-protein control", "direction": "higher = stronger binding", "constant ends, left off below": "GGGAGUUCUACAGUCCGACGAUC … UGGAAUUCUCGGGUGCCAA", "Construct (chain)": "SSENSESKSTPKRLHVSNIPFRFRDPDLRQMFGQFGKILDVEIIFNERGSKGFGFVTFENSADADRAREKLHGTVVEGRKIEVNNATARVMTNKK"}
{"Oligonucleotide": "AUGCUAGACAUGGAGAAUCUGCUCUGUUUGUCCUUUAUACAUUUCUGUAGUUAACAGAACACUGUAAUGUGCCUUGGAGCUUAGUAACUUGUAAUAAAUUCAAUUGAUAU", "RBNS enrichment (R)": 0.557}
{"Oligonucleotide": "CAGGUCACUCUCCCGAUCUCCCUACUACCAGCCAGGUGCUGUUUCCUUCUGAGCUGUGGAGAUCACACCAUCCUGUCGCCCUGCAAAUAAUUGUGGAUCAUUUACCUUGA", "RBNS enrichment (R)": 0.384}
{"Oligonucleotide": "UUUACGUGUUUCUAAGUUGUUGGCUACAUCAAAGAGAUCAUCUGUAUUCUGCAUAUGGGCUGGCUUUGGUGAAGCUGAUGACUGGACUUCUAAGAACCGUUUUCCCAAAU", "RBNS enrichment (R)": 0.19}
{"Oligonucleotide": "CCUUCUGGGUGCUCUACACCUCAGGUUACCAGGCCUGAGGCAUCUCAGCCAAGCUUGUUUCCUGCUCUGAGGCUUGUGGGGUGGGAGCCAGAGUGGAGGUCGGUGAAAUA", "RBNS enrichment (R)": 0.829}
{"Oligonucleotide": "AUCUGGGUAAAUAGAGGACAAAACUAAUUCUUUGAGGCUUUAACUUGGGCACUUGCCUUGAUUCCUUUUAUUAUUGGAAGUCAGAUACCCCCUCUCCAAAGUGAGCAGGC", "RBNS enrichment (R)": 0.433}
{"Oligonucleotide": "CUAGUCCUCUUAGAAUUUCUUGCGCUUUGAUUUUUUUAGGGCUUGUGCCCUGUUUCACUUAUAGGGUCUAGAAUGCUUGUGUUGAGUAAAAAGGAGAUGCCCAAUAUUCA", "RBNS enrichment (R)": 2.77}
{"Oligonucleotide": "CACUUAUAAUUUCUACUACUGCACUACUGUCCAUUGUGGGAUGAUUAAACAUGGUAUUUAACUGUGCCUCUGUCUGCUGGGUGUGCUGCUUCACGCUACGUCUCGGACCC", "RBNS enrichment (R)": 0.338}
{"Oligonucleotide": "UAAAAAGCUUUUAUAUGAGACAGACAAGUCCCUGAGUUCCAGGCCAGCCUUGGUGGCAAGUCACUAGGAAACUUCAAGGUCUGUCUCAUCUUUAUUUUACUGUGUGCCCC", "RBNS enrichment (R)": 0.41}
{"data": "Set 3", "target": "Interferon regulatory factor 3, full length, phosphomimetic (IRF3, Homo sapiens, UniProt Q14653, residues 1-427, S386D/S396D/S398D/S402D/T404D/S405D)", "technique": "protein-binding microarray", "form": "double-stranded DNA, one strand shown", "medium": "in vitro", "tested at": "2540 nM top", "notes": "60-bp whole probe", "added": "salmon DNA 0.4 mg/ml", "relative to": "random background probes", "direction": "higher = stronger binding", "constant ends, left off below": "GCCTAGCAC … GTCTTGATTCGCTTGACGCTGCTG", "Residues (chain)": "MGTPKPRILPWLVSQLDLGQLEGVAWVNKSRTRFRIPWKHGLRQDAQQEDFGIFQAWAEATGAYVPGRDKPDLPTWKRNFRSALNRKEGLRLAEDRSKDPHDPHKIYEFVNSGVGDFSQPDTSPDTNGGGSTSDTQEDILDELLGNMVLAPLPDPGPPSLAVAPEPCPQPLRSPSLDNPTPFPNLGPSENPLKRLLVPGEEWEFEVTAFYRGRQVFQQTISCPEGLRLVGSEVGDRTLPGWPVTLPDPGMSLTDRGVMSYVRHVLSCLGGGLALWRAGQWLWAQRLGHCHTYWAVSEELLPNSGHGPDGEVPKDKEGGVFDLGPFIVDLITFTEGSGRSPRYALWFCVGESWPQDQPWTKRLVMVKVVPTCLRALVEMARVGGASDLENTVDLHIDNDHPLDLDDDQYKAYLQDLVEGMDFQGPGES"}
{"Oligonucleotide": "AGCCTTATCCCTAATCTCAGCGTGCTA", "fitted relative affinity": "0.716 z-score"}
{"Oligonucleotide": "TTAGATTTCGGACTGGATTAGTGCTAG", "fitted relative affinity": "1.53 z-score"}
{"Oligonucleotide": "TTAGGACTGCTTGTCCTTTAGTGCTAG", "fitted relative affinity": "-0.291 z-score"}
{"Oligonucleotide": "TTAGGTTTTGACTATCGGTTAGTGCTA", "fitted relative affinity": "0.172 z-score"}
{"Oligonucleotide": "GACGGACTCCTTCTCCTGACGTGCTAG", "fitted relative affinity": "1.83 z-score"}
{"Oligonucleotide": "TTAGGTTTCGGACTGGGTTGGTGCTAG", "fitted relative affinity": "4.03 z-score"}
{"Oligonucleotide": "GACGAACTGAGTCTCGGGACGTGCTAG", "fitted relative affinity": "-0.287 z-score"}
{"Oligonucleotide": "TGCTTTCCAATTCTCTTTTCGTGCTAG", "fitted relative affinity": "6.56 z-score"}
{"Oligonucleotide": "GGTCAGTCAGGTCACTTCTGGTGCTAG", "fitted relative affinity": "-0.19 z-score"}
{"Oligonucleotide": "TTAGAACTTAGTTTCGATTAGTGCTAG", "fitted relative affinity": "4.19 z-score"}
{"Oligonucleotide": "GATGGACTGGACTTTCGGGACGTGCTA", "fitted relative affinity": "-0.0774 z-score"}
{"Oligonucleotide": "ACCATTCTCGGGACTCACCTGGTGCTA", "fitted relative affinity": "3.83 z-score"}
{"Oligonucleotide": "TTAGGTTTCGTACTGGGTTAGTGCTAG", "fitted relative affinity": "3.72 z-score"}
{"Oligonucleotide": "GACGGACTGGGTAACGGGACGTGCTAG", "fitted relative affinity": "-0.528 z-score"}
{"Oligonucleotide": "TCACTTCTGCCTGTCCAACTGTGCTAG", "fitted relative affinity": "0.969 z-score"}
{"Oligonucleotide": "TTAGATCTGAGTATCGATTAGTGCTAG", "fitted relative affinity": "0.308 z-score"}
{"Oligonucleotide": "TCATTCCTGATCTCTGGTCTTGTGCTA", "fitted relative affinity": "1.07 z-score"}
{"Oligonucleotide": "GAAGGTTTCGGTCTCGGGACGTGCTAG", "fitted relative affinity": "8.13 z-score"}
{"Oligonucleotide": "GACGGACTGCTACTGGTGACGTGCTAG", "fitted relative affinity": "-0.503 z-score"}
{"data": "Set 4", "target": "CCNA1, cyclin fold, Cln2 fusion (human)", "technique": "yeast growth competition, sequencing", "medium": "yeast", "notes": "weak parent motif", "relative to": "not given", "direction": "higher = stronger binding", "parent": "SLBP docking peptide (human); ARYKRKLLINDFG; partner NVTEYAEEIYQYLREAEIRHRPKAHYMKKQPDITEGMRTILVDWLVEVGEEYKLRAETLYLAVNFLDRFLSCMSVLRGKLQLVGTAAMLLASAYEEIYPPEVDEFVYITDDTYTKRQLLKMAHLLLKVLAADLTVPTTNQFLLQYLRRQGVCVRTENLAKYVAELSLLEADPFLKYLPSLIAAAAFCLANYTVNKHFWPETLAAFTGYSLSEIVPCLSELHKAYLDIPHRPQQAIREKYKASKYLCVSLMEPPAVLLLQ"}
{"Change": "ARGKRKLLINDFG [Y3G]", "normalised enrichment score": 0.372}
{"Change": "AWYKRKLLINDFG [R2W]", "normalised enrichment score": 0.6}
{"Change": "ARYKRALLINDFG [K6A]", "normalised enrichment score": 0.569}
{"Change": "ARYKRKVLINDFG [L7V]", "normalised enrichment score": 0.142}
{"Change": "ARYKHKLLINDFG [R5H]", "normalised enrichment score": 0.57}
{"Change": "ARYKKKLFINDFG [R5K L8F]", "normalised enrichment score": 0.299}
{"Change": "ARYKLKLLINDFG [R5L]", "normalised enrichment score": 0.598}
{"Change": "ARYKRPLLINDFG [K6P]", "normalised enrichment score": 0.35}
{"Change": "ARYKRKLLINDTG [F12T]", "normalised enrichment score": -0.0923}
{"Change": "ARYKRKLLINFFG [D11F]", "normalised enrichment score": -0.0667}
{"Change": "ARYKRKILINDFG [L7I]", "normalised enrichment score": -0.0513}
{"Change": "ARYKRKLLLNDFG [I9L]", "normalised enrichment score": 0.536}
{"Change": "WRYKRKLLINDFG [A1W]", "normalised enrichment score": 0.484}
{"Change": "ERYKRKLLINDFG [A1E]", "normalised enrichment score": 0.294}
{"Change": "ARYKRKLLIWDFG [N10W]", "normalised enrichment score": 0.397}
{"Change": "ARYKRKLLINDFR [G13R]", "normalised enrichment score": 0.393}
{"Change": "ARVKRKLLINDFG [Y3V]", "normalised enrichment score": 0.397}
{"Change": "ARYKRKLLIYDFG [N10Y]", "normalised enrichment score": 0.355}
{"Change": "ARYKDKLLINDFG [R5D]", "normalised enrichment score": 0.338}
{"Change": "ARYKRKLLIPDFG [N10P]", "normalised enrichment score": 0.573}
{"Change": "ARYKRKLLINKFG [D11K]", "normalised enrichment score": 0.286}
{"Change": "ARYKRKLHINDFG [L8H]", "normalised enrichment score": 0.323}
{"Change": "AIYKRKLLINDFG [R2I]", "normalised enrichment score": 0.52}
{"Change": "ARYERKLLINDFG [K4E]", "normalised enrichment score": 0.215}
{"Change": "GRYKRKLLINDFG [A1G]", "normalised enrichment score": 0.425}
{"note": "Some of these lines once more (set 3):"}
{"Oligonucleotide": "AGCCTTATCCCTAATCTCAGCGTGCTA", "fitted relative affinity": "0.716 z-score"}
{"Oligonucleotide": "TTAGGTTTCGGACTGGGTTGGTGCTAG", "fitted relative affinity": "4.03 z-score"}
{"Oligonucleotide": "GACGGACTGCTACTGGTGACGTGCTAG", "fitted relative affinity": "-0.503 z-score"}
{"Oligonucleotide": "GGTCAGTCAGGTCACTTCTGGTGCTAG", "fitted relative affinity": "-0.19 z-score"}
{"Oligonucleotide": "TTAGATTTCGGACTGGATTAGTGCTAG", "fitted relative affinity": "1.53 z-score"}
{"Oligonucleotide": "TGCTTTCCAATTCTCTTTTCGTGCTAG", "fitted relative affinity": "6.56 z-score"}
{"Oligonucleotide": "GACGGACTGGGTAACGGGACGTGCTAG", "fitted relative affinity": "-0.528 z-score"}
